Experimental data collected from several papers.
Each line is one published result; not all experiments were run side by side. Numbers after ± are the reported error.

| SMILES | test | system | setting | scale | tissue uptake [%ID/g] |
| --- | --- | --- | --- | --- | --- |
| N=C(N)NCc1ccc(C(=O)NCCCC[C@H](NC(=O)N[C@@H](CCC(=O)O)C(=O)O)C(=O)O)cc1[131I] | – | SCID mouse, PC-3 xenografts, stomach | 2 h | – | 0.6 ± 0.15 |
| O=C(O)CC[C@H](NC(=O)O[C@@H](CCCCNC(=O)c1ccc([18F])cc1)C(=O)O)C(=O)O | – | mouse, PC-3 PIP/flu xenografts, blood | 30 min | – | 2.51 ± 1.75 |
| CCNc1cc2[o+]c3cc(NCC)c(C)cc3c(-c3ccccc3C(=O)OCCOCC[18F])c2cc1C | – | rat, liver | 60 min | – | 0.15 ± 0.02 |
| COc1cc2ncnc(Oc3cccc(N[11C](=O)Nc4cc(C(C)(C)C(F)(F)F)on4)c3)c2cc1OC | – | Balb/c nude mouse, female, A375 melanoma xenograft, pancreas | 6.6 MBq, 60 min | – | 6.97 ± 0.33 |
| N=C(N)NCc1ccc(C(=O)NCCCC[C@H](NC(=O)CCCCCCC(=O)NCCCC[C@H](NC(=O)N[C@@H](CCC(=O)O)C(=O)O)C(=O)O)C(=O)O)cc1[131I] | – | SCID mouse, PC-3 xenografts, spleen | 1 h | – | 9.83 ± 3.28 |
| COc1ccc(C)cc1NC(=O)OC1CC2CCCC(C1)N2Cc1ccc(CC[18F])cc1 (centres unmarked) | – | BALB/c mice, EMT6 tumour, muscle | 1 h | – | 1.92 ± 0.51 |
| CC(C)C[C@@H](NC(=O)[C@@H](CCCNC(=N)N)NC(=O)[C@@H](Cc1c[nH]cn1)NC(=O)[C@@H](Cc1c[nH]c2ccccc12)NC(=O)[C@@H](Cc1c[nH]cn1)NC(=O)[C@@H](Cc1ccccc1)NC(=O)[C@H](NC(=O)[C@@H](Cc1ccc(O)cc1)NC(=O)CNC(=O)CNC(=O)CCOCCOCCOCCNC(=O)CN1CCN(CC(=O)O)CCN(CC(=O)O)CC1)[C@H](C)O)C(=O)N[C@H](CC(N)=O)C(=O)N1CCC[C@@H]1C(=O)O [gallium-68 labelled] | dynamic PET | male C57BL/6 mice, tumour | intravenous, 60 min | – | 4.22 ± 0.68 |
| O=C(c1ccc(F)cc1)C1CCN(C2Cc3c(cccc3OCC[18F])CC2O)CC1 (single isomer, unassigned; (-)) | – | Sprague-Dawley rat, male, thalamus | 5 min post-injection | – | 0.691 |
| CCN(CC)c1ccc2c(-c3ccccc3C(=O)OCCC[18F])c3ccc(=[N+](CC)CC)cc-3oc2c1 | – | rat, muscle | 60 min | – | 0.3 ± 0.01 |
| CCCC[C@H](NC(=O)CN1CCC(NC(=O)CN2CCC(NC(=O)CN3CCN(CC(=O)O)CCN(CC(=O)O)CCN(CC(=O)O)CC3)CC2)CC1)C(=O)N[C@H]1CC(=O)NCCCC[C@@H](C(N)=O)NC(=O)[C@H](Cc2c[nH]c3ccccc23)NC(=O)[C@H](CCCNC(=N)N)NC(=O)[C@@H](Cc2ccccc2)NC(=O)[C@H](Cc2c[nH]cn2)NC1=O [gallium-68 labelled] | – | C57BL/6J mice male B16-F10 tumour, blood | 1 h post injection, unblocked | – | 0.5 ± 0.2 |
| CN[C@](C)(C[18F])C(=O)O | – | SCID mouse DU-145 xenograft, spleen | 30 min, post injection | – | 7.9 ± 0.9 |
| COc1ccc(NC(=O)Cn2c(=O)c3ccccc3n(CC(=O)Nc3cc([125I])c(OC)cc3OC)c2=O)cc1 | – | Wistar rat (normal), fat | intravenous, 0.08333 h | – | 0.07 ± 0.02 |
| CCN(CC)c1ccc2c(-c3ccccc3C(=O)OCCOCC[18F])c3ccc(=[N+](CC)CC)cc-3oc2c1 | – | rat, muscle | 60 min | – | 0.54 ± 0.07 |
| N=C(N)NCc1ccc(C(=O)NCCCC[C@H](NC(=O)N[C@@H](CCC(=O)O)C(=O)O)C(=O)O)cc1[211At] | – | SCID mouse, PC-3 xenografts, bone | 1 h | – | 0.87 ± 0.28 |
| C=Cc1cc(O)cc2nc(-c3ccc(O)c([76Br])c3)oc12 | – | female C57BL/6 mouse, liver | 3 h, high dose | – | 0.36 ± 0.09 |
| N=C(N)NCc1ccc(C(=O)NCCCC[C@H](NC(=O)CCCCCCC(=O)NCCCC[C@H](NC(=O)N[C@@H](CCC(=O)O)C(=O)O)C(=O)O)C(=O)O)cc1[211At] | – | SCID mouse, PC-3 xenografts, heart | 2 h | – | 0.76 ± 0.11 |
| CN(C)c1ccc(C(=O)NCCCCN2CCN(c3ccccc3O[11CH3])CC2)cc1 | – | male Sprague Dawley rat, fat | iv, 30 min | relative to: untreated | 0.064 |
